# Measurements collected from several papers.
# Every numbered part comes from another study and shows a few of its results, in no order. Changes are numbered by the printed parent chain.

# Study 1 — technique: RNA Bind-n-Seq; form: RNA; matrix: in vitro; tested at: 365 nM; baseline: no-protein control; reading: higher = stronger binding
# Target: RNA binding protein fox-1 homolog 2, RRM domain, GST-SBP tag (RBFOX2, Homo sapiens, UniProt O43251-10, residues 100-194)
# Notes: natural RNA segment, single round, ends assumed
Strand,RBNS enrichment (R)
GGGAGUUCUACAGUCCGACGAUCUUAGUCUGCUGAGCCAGCUUUACCCAAUGAAGGGCAUAUGUGUUAGAGAGAUUAGCUAAGAGUAGAAAUUCGAGCAUAGAGGCCAGGUGCGGUGGCUCACGCCUGUAAUCUGGAAUUCUCGGGUGCCAA,0.536
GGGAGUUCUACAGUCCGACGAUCAGUUUGGCUGUUGUUGCAGGAAAAUGAUUAUAACUAAAAGCUCUCUGAUAGUGCAGAGACUUACCAGAAGACACAAGGAAUUGUACUGAAGAGCUAUUACAAUCCAAAUAUGGAAUUCUCGGGUGCCAA,0.563
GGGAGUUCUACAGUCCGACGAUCCAUGCCACACCUCUCUCCAGGUGCCCUCUGCCUCUUCACCCCACAAGAAGCCUUAUCCUACGUCCUUCUCUCCAUCUAUCGGACCCCAGUUUCCAUCACUAUCUCCAGAGUGGAAUUCUCGGGUGCCAA,0.593
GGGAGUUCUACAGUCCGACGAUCAGCGAGGUCUGCUUCUUUCUUUUUACUUCCCCUGUGUUUCUGAAAGGCGGUUUGGCCAGGCUUACUGCAGGCAUCCGACUGUAGAGAUCGCCACAGUCUCUGGGGCUCCAUGGAAUUCUCGGGUGCCAA,0.445
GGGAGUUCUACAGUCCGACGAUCUAGUUGCAGUCACUUCAGGUCUCUCCCUCGGGUUCCCUUAGGAUGCAAGCACAAGAACAGACACCUGGUCAGCAUGGUGCUGAAACCCCUUUCUCUUCACUGUCAUGGUGUGGAAUUCUCGGGUGCCAA,4.78
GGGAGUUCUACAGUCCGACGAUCAUGGAUCUGAAGUUCUCAGCCCUCACCCCACACUGCUGGAAUCUUCUGUAGAGCUGCCUGCCAAGCCACCUGAAACACAGUGGCUCCCUGUGACACUCAGGCCUCAGAUGUGGAAUUCUCGGGUGCCAA,0.533
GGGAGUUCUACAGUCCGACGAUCAUAUUAAGGUGUGGCUUUAGGAGCAGUGGGAGGGUACCAGCAGAAAGGUUAGUAUCAUCAGAUAGCAUCUUAUACGAGUAAUAUGCCUGCUAUUUGAAGUGUAAUUGAGAUGGAAUUCUCGGGUGCCAA,0.646
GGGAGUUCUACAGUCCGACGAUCUCGGGAAGGAUGGGAAAAACUGCAGUCACCAACAAUGAUUAAUCAGCUGUUGCAGGCAGUGUCUUAAGGAGACUGGUAGGAGGAGGCAUGGAAACCCAAAGGCCGUGUGUUGGAAUUCUCGGGUGCCAA,0.799

# Study 2 — technique: RNA Bind-n-Seq; form: RNA; matrix: in vitro; tested at: 200 nM; notes: whole 134-nt RNA, ends assumed; together with: 150 mM LiCl; baseline: input library; reading: higher = stronger binding; library: 7-deaza-guanosine replaces G
# Target: Fragile X messenger ribonucleoprotein 1, C-terminal low-complexity region (Fmr1, Mus musculus, UniProt P35922)
Strand,log2 enrichment
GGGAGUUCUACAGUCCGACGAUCUCCUGUGCUACACAUCGUAUGUACCGAAUCAAAUUUUUUUAAACCCCCAAAUUUUUAAAAAAGUAUUAUGUUACGCCGUUCGGAUCUGCAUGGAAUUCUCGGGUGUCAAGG,-0.66
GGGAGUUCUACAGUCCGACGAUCCACAGACAACACGCACCCACACAGACACAGAGGGAAGGGGUUGGGAUGGGGACAGGGUGCACAACAGGGCGGGGUAGGACCCCAGCCCCUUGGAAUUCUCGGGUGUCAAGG,0.116
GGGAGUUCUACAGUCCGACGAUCUUUUACAACCCCAAUUUAAAGAAAGUUGUAGAGGCCCACAAGAUCGUUCUCUGCGCUGUAAGCCAUGUUUUCAUGCUGCUUUUCAAUGUGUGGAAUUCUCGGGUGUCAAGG,-2.07
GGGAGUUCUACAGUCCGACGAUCAGUCCUGUGCUACACAUCGUAUGUACCGAAUCGGGUUUGGGUUUUUUUGGGUUUGGGAAAGUAUUAUGUUACGCCGUUCGGAUCUGCACUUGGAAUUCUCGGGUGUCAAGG,-1.49
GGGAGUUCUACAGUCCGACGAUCAAGUCCUGUGCUACACAUCGUAUGUACCGAAUCGGGUUUGGGUUUUUUUGGGUGGGAAAGUAUUAUGUUACGCCGUUCGGAUCUGCACUUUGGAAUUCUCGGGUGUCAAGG,-1.05
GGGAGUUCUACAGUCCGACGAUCUCCUGUGCUACACAUCGUAUGUACCGAAUCGGGGUUUUUGGGGUUUUUGGGGUUUUUGGAAAGUAUUAUGUUACGCCGUUCGGAUCUGCAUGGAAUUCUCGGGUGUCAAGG,0.629
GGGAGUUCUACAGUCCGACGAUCUCAAGUCCUGUGCUACACAUCGUAUGUACCGAAUCGGAAAAAGGUUUUUGGAGGAAAGUAUUAUGUUACGCCGUUCGGAUCUGCACUUCCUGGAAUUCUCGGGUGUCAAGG,-0.787
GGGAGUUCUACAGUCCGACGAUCCAAGUCCUGUGCUACACAUCGUAUGUACCGAAUCGGGAAAAAAAGGGAGGGAGGGAAAGUAUUAUGUUACGCCGUUCGGAUCUGCACUUCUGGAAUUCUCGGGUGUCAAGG,-0.593

# Study 3 — target: CCNF, cyclin fold, Cln2 fusion (human); technique: yeast growth competition, sequencing; matrix: yeast; notes: strong parent motif; baseline: not given; reading: higher = stronger binding
# Starting sequence: RBL1 docking peptide (human); GSAKRRLFGEDPP
Substitution,normalised enrichment score
GSAKRRLFNEDPP [G9N],8.39
GSQKRRLFGEDPP [A3Q],2.11
GHAKRRLFGEDPP [S2H],7.32
GSAKRRLFGHDPP [E10H],6.64
GSAKRRLFGEIPP [D11I],6.73
GSAKRRLFGETPP [D11T],7.3
GNAKRRLFGEDPP [S2N],7.91

# Further values, each from its own experiment
Molecule,target,test,system,conditions,how to read,measurement,value
"PhoQ, residues 284 288 289 292 302 303 TYGVAM","PhoP, residues 12 14 15 18 19 LHSVQ (Escherichia coli, UniProt P23836)","Sort-seq, item: YFP reporter",E. coli,"PhoQ-PhoP variant library, together with: 10 µM Mg2+","baseline: high Mg2+ state, higher = stronger signaling",fold induction,14.7
